Assay results collected from several papers.
Each numbered part is a random draw from the data of one study; scales do not carry over between parts.

Series 1 — method: RNA Bind-n-Seq; molecule type: RNA; sample: in vitro; tested at: 1 µM; notes: whole 134-nt RNA, ends assumed; added: 150 mM KCl; relative to: input library; direction: higher = stronger binding; measurement: log2 enrichment
Target: Ras GTPase-activating protein-binding protein 1, C-terminal RGG region (G3BP1, Homo sapiens, UniProt Q13283)
UniProt Q13283, sequence (whole entry, looked up): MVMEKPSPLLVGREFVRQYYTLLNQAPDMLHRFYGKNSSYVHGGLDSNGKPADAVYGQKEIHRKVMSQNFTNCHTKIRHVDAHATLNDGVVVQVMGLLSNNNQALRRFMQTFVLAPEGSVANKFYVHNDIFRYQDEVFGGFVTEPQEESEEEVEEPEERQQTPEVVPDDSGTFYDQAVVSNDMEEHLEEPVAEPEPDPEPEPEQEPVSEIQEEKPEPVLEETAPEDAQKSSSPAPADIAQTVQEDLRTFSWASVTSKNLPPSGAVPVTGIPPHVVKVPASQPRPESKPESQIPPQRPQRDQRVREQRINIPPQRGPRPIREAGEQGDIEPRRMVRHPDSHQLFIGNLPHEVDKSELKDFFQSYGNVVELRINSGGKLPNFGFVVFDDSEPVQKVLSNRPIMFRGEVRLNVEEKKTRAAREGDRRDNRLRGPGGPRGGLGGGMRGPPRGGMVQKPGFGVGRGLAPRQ
Constant ends, left off below: GGGAGUUCUACAGUCCGACGAUC … UGGAAUUCUCGGGUGUCAAGG
CACAGACAACACGCACCCACACAGAAACAGAGGGAAGGGGUUGGGAUGGGGACAGGGUGCACAGCAGGGCGGGGUAGGACCCCAGCCCCU: -0.348
GUCCUGUGCUACACAUCGUAUGUACCGAAUCGGGUUUGGGUUUUUUUGGGUUUUUGGGAAAGUAUUAUGUUACGCCGUUCGGAUCUGCAC: 0.334
CAAGUCCUGUGCUACACAUCGUAUGUACCGAAUCGGAAAAAGGAAAAAGGAAAGGAAAGUAUUAUGUUACGCCGUUCGGAUCUGCACUUC: -1.89
AAGUCCUGUGCUACACAUCGUAUGUACCGAAUCGGGGUUUUGGUUUUGGUUUUGGGAAAGUAUUAUGUUACGCCGUUCGGAUCUGCACUU: -1.75
GUCCUGUGCUACACAUCGUAUGUACCGAAUCGGUUUUUUUGGUUUUUGGUUUUUUUGGAAAGUAUUAUGUUACGCCGUUCGGAUCUGCAC: -1.57
UGGGAGGUGGAUUUUGUUUAUUUUUUUAGCUCAUUUCCAGAGGUGGGAAUUUUUUUUUAAUAUGUGUCAUGAAUAAAGUUGUUUUUGAAA: 2.81
UCCUGUGCUACACAUCGUAUGUACCGAAUCGGGGAAAAAGGGGUGGGGAAAAAAAGGGGAAAGUAUUAUGUUACGCCGUUCGGAUCUGCA: 1.06
UAACUUUAGAGGAGGAUCUGAUGGAUAUGGCAGUGGACGUGGAUUUGGGGAUGGCUAUAAUGGUUAUGGAGGAGGACCUGGAGGUGGCAA: -0.691
CUCAAGUCCUGUGCUACACAUCGUAUGUACCGAAUCGGAAAAAGGAGGAAAGGAAAGUAUUAUGUUACGCCGUUCGGAUCUGCACUUCCA: -1.45
CGGGAGGUGGAUUUUGUUUAUUUUUUUAGCUCAUUUCCAGGGGUGGGAAUUUUUUUUUAAUAUGUGUCAUGAAUAAAGUUGUUUUUGAAA: 3.39

Series 2 — method: RNA Bind-n-Seq; molecule type: RNA; sample: in vitro; tested at: 365 nM; relative to: no-protein control; direction: higher = stronger binding; measurement: RBNS enrichment (R)
Target: RNA binding protein fox-1 homolog 2, RRM domain, GST-SBP tag (RBFOX2, Homo sapiens, UniProt O43251-10, residues 100-194)
Notes: natural RNA segment, single round, ends assumed
Constant ends, left off below: GGGAGUUCUACAGUCCGACGAUC … UGGAAUUCUCGGGUGCCAA
Construct (chain): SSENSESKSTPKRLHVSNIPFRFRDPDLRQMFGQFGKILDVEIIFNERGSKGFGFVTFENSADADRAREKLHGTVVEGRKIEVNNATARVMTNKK
UUAAAAAUAAGAUAUAUAUACAUAUAUAUAUCCAAUACAAUGAACUUUGAAGAUUUCUCAGAAAACUCAGAAGAAACGCCCUCUUUCAGGAUAAAUGUGGUGUUCCUAGC: 0.58
AUACUUAGAUGUCUAACUGUUUAAUUGCUACAGAGCUUUAUAGAUAUUUAGAGAAAAGACUUAAUCAAUUAGUAAAUAAAAUUGCCUAUGGCAGGAUUCUUUCUUGAAUU: 1.3
AUAAUGAAGAGAAGAAGGACAGACGCAAAGAAGAAAAGGAUAGUCUCAAGAUUGCAACAGGGAGCAGAACUUGACACUUACAUUUUUUUAAACCUGAUUUUUGUUUUCAA: 0.98
CCCAUGGAGAAAUGGAGACAUCUUGUCCCCACCUGAGGAGUGGACAUCUGCCUGAUUCUUGCCAACACGAGGGGUGGAAAUGGGAGAAAAAGCUUUUAGUUGCUAAUUUG: 0.374
UACCAUUUUGAGGGGAUUUAUACAUAUUUUUAGAUAAAAUUAAAUGCUCUUAUUUUUCCAACAGCUAAACUACUCUUAGUUGAACAGUGUGCCCUAGCUUUUCUUGCAAC: 1.57
UCAAAUACCAUAAAAGUGUUUGCUACAAUAAAUAAAAUUCUUGUGACUUUACUACCAAGUCAUCUCUGCACUCAUUGAAAUUCAGUCAUUGGUAGUGGAGGGCUGGAAUU: 0.413
GUUUGUAAGAAGUACUUUCGUUAAUCUUGCUGCUUAUGUGUCAAUUUAGUGGAAAAGAAAUCCCUUGCUGAAAAAAAAAAUCCCUUUCCAUUCUCUUCCAGUUCUGUGGU: 0.419
CACUUAUAUUGUACAAUACUUCAGACUGUUUUUUUUAAAUACAUAAAACUUUAUGUUAAAAAACUCUAUUAACAUGGCCAAUUGGCAUGACUCCUCUUAUGAGGGAUGGG: 0.653
CUCUUGGAGGCUUUCCCUGGAUUCCCUGAGUACAGUGUUAAAAGGCCUAACCACACAGCCACCUGCCCUAAGUGACAUUGUGUUUUUAGGUGUCACCGUCUUAGCCCUUU: 0.269

Series 3 — method: RNA Bind-n-Seq; molecule type: RNA; sample: in vitro; tested at: not given; notes: RNA with constant flanks, ends assumed; relative to: input RNA pool; direction: higher = stronger binding; measurement: bound/input enrichment
Target: RING finger protein unkempt homolog, zinc fingers 1-6, GST-SBP tag (UNK, Homo sapiens, UniProt Q9C0B0, residues 30-357)
Constant ends, left off below: GGGAGUUCUACAGUCCGACGAUC … CAACAGAGGAUUGAGCAUCA
Construct (chain): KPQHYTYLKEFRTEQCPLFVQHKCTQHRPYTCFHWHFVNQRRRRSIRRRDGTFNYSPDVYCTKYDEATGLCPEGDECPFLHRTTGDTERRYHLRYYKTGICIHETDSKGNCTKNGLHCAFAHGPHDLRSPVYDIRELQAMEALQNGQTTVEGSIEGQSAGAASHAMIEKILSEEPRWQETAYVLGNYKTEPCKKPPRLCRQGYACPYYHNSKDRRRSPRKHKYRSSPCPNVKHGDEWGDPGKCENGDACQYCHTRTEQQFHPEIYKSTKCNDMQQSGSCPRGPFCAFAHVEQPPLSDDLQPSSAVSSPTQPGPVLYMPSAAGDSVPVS
AAUCCGUAUGUUUAUACUUCUAAAUCUGCCUGAGUGACCUUGAAAAGGGAACCAGUGUGUUCCGGAGAAAAAAGCAACAGGAUACAAACCAAAGUCUUUUAUAAUUGUGGCAAGAGUUGA: 0.151 ratio
GGGAUUGAUCUCCUUAGGACCUAUCUUUGGCGUUGCCAGUUCCUUUUACCUUUUGUGAGUUCCGGUUUGAUGUGCUUUGGGGCUUUGAUCGGACUUUGUGCUUGCAUUUGCCGAAGCUUA: 2.37 ratio
UUUUAUGAACGACUGGCAGGCCAUGGCCCUAAACUAGGACCUGUCACCAGGAAGUAUCCUUCCGUUACCAGGUAUUUUACUUUCCCCUUUGGAGAAAUGGCCUUAUCCGCAGAGGAAGCC: 1.1 ratio
AUGCUCUAACUGGACAUGAAGGAAAGGGGCGAGGGAGGGGGGUGGGAUUUUUGGUGCAAGCCGCACAUGGUUUAAAUAUGAAUGAACAAACCUGUGAUCUAGUCCUUGUCUUGUAAUUGU: 0.194 ratio
UUGAAACUUUCUCCAAUUAAAUAUGGCUACCAGCCCCGCAGGAACUUUUGGCCAGCAAGGUCCGCUGCAAGACUCUUAAAACUUCGAUAUAUCAUACUGGGAUCUGCUGUUGGAGGUGGC: 0.681 ratio
GAUAAGGUACACAUACAUUAUUUGAGUAACUGUUUCCUUGGGGGCCAAUCUGUGUAUGCUUUCCGAAGUUUACAGAAUGCUUUUAUUUUUGUCUAUAACAAACAGUCUGUCAUUUAUUUC: 0.207 ratio
CCCCCUCGGAAGAAAAGGGCCCGGGCAGACCCCACUGUUGAAAGUGAGGAGGCGUUUAAGAACCGAAUGGAGGUUAAAGUGAAGAUUCCUGAAGAAUUAAAACCAUGGCUUGUUGAGGAC: 0.426 ratio
AGCAAAGAAGAAGUUAUCAAGUUCUUGGAAAAUACUCCAUCCAGUCUGAAUAUAGAAGAUACCGAAGACCUUUUCUCUCUGGCUCAGUAUUAUUGCAGCAAAACACCGGCUUCUUUUAGG: 0.295 ratio
AGAGGCUGAGAGUCCCCCCCACGGUUUUUUUUUUUCUUCAUUUAGAUGUAACAAGCCCCGCCGUUUAUGUUCAUCAAUUGUCUGUAUAUCUAUAUUUUACCCAUGUACUCUUUUGAUGUA: 2.22 ratio
UUUGGAGCUCCUCCUCAUGCUGGUGGUGGCAUUGGGCUGGAAAGGGUGACGAUGCUGUUUUCCGGAUUGCAUAACGUACGCCAGACCUCAAUGUUCCCUCGUGACCCCAAACGACUCACG: 0.08 ratio
UUUGUUUGUAACUUAUCUGUAAAAGGUUCCCCCCCCCUACUGUCAAAAAAUAUGCAUGUACCGUAAUCCGGACUUCAUUCCUCCAUGUUUUCUUCCCUUAUCUUACUGUCAUUGUCCUUA: 0.834 ratio

Series 4 — method: protein-binding microarray; molecule type: double-stranded DNA, one strand shown; sample: in vitro; tested at: 2540 nM top; notes: 60-bp whole probe; added: salmon DNA 0.4 mg/ml; relative to: random background probes; direction: higher = stronger binding; measurement: fitted relative affinity; constant ends, left off below: GCCTAGCAC … GTCTTGATTCGCTTGACGCTGCTG
Target: Interferon regulatory factor 3, full length, phosphomimetic (IRF3, Homo sapiens, UniProt Q14653, residues 1-427, S386D/S396D/S398D/S402D/T404D/S405D)
Residues (chain): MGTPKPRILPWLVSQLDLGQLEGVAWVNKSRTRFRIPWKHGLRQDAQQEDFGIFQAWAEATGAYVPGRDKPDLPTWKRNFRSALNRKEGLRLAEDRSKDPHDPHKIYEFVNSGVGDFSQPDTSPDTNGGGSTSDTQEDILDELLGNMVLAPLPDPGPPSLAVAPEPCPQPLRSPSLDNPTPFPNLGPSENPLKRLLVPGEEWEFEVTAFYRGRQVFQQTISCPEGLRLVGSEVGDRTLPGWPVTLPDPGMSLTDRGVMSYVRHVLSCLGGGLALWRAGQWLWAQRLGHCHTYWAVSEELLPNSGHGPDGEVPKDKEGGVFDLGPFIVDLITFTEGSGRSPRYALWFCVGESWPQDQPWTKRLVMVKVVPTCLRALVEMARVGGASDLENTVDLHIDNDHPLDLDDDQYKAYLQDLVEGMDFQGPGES
TTAGGTTTCTGTTTCGGTTAGTGCTAG: 8.47 z-score
GAATGATTACATATATGTTGGTGCTAG: 0.41 z-score
CACGGTATCGGTATCGGGACGTGCTAG: 4.29 z-score
TTAGGTTTCCTTATCCTATAGTGCTAG: 8.38 z-score
TCACATATAATTTTGTCATCGTGCTAG: 0.383 z-score
GAAGATGTCAAACTCACTCAGTGCTAG: -0.00152 z-score
TCAATTCTGCTTTGCAAACTGTGCTAG: 0.518 z-score
TTAGAACTGGGGACTGGATGAGTGCTA: -0.788 z-score
TTAGGTTTCGGTATTGGTTAGTGCTAG: 8.04 z-score
TTAGAACTGAGTGTCGATTAGTGCTAG: 0.0396 z-score
GACGGACCGGACACTGGGGACGTGCTA: -0.245 z-score
TTAGGTTTCGGTTTTGGTTAGTGCTAG: 10.7 z-score
TTAGGTAGCGGTCTCGGTTAGTGCTAG: 0.689 z-score
GACGAACTGGGGTATCGCGACGTGCTA: -0.491 z-score
TTAGATTGCAGTTCCGATTAGTGCTAG: 2.23 z-score
TTAGGACTAGGGTTTCGGTTAGTGCTA: 2.61 z-score
CTGCACTCCAGTCTGGGAGAGTGCTAG: 0.137 z-score
TTAGGACTGGGGTTCCGGTTAGTGCTA: -0.00164 z-score
GACGGTCTCCTACTGCTGTCGTGCTAG: 1.41 z-score
GACGATTCCAGTTTCCAGACGTGCTAG: 3.95 z-score
GACGATATCCTTCTCCTGACGTGCTAG: 3.77 z-score

A few entries again (series 1):
AAGUCCUGUGCUACACAUCGUAUGUACCGAAUCGGGGUUUUGGUUUUGGUUUUGGGAAAGUAUUAUGUUACGCCGUUCGGAUCUGCACUU: -1.75
CGGGAGGUGGAUUUUGUUUAUUUUUUUAGCUCAUUUCCAGGGGUGGGAAUUUUUUUUUAAUAUGUGUCAUGAAUAAAGUUGUUUUUGAAA: 3.39
CACAGACAACACGCACCCACACAGAAACAGAGGGAAGGGGUUGGGAUGGGGACAGGGUGCACAGCAGGGCGGGGUAGGACCCCAGCCCCU: -0.348
UGGGAGGUGGAUUUUGUUUAUUUUUUUAGCUCAUUUCCAGAGGUGGGAAUUUUUUUUUAAUAUGUGUCAUGAAUAAAGUUGUUUUUGAAA: 2.81
UCCUGUGCUACACAUCGUAUGUACCGAAUCGGGGAAAAAGGGGUGGGGAAAAAAAGGGGAAAGUAUUAUGUUACGCCGUUCGGAUCUGCA: 1.06
UAACUUUAGAGGAGGAUCUGAUGGAUAUGGCAGUGGACGUGGAUUUGGGGAUGGCUAUAAUGGUUAUGGAGGAGGACCUGGAGGUGGCAA: -0.691
GUCCUGUGCUACACAUCGUAUGUACCGAAUCGGUUUUUUUGGUUUUUGGUUUUUUUGGAAAGUAUUAUGUUACGCCGUUCGGAUCUGCAC: -1.57
